# Measured values gathered from unrelated publications.
# Compare with care: the assays were run in different laboratories. ± marks the error that the study gave.
SMILES,tested on,test,system,setting,scale,endpoint,result
O=C(O)C[C@H](NC(=O)[C@H](CC(=O)O)NC(=O)[C@H](CC(=O)O)NC(=O)[C@H](CC(=O)O)NC(=O)[C@H](CC(=O)O)NC(=O)[C@H](CC(=O)O)NC(=O)[C@H](CC(=O)O)NC(=O)[C@H](CC(=O)O)NC(=O)[C@H](CC(=O)O)NC(=O)[C@H](CC(=O)O)NC(=O)[C@H](CC(=O)O)NC(=O)[C@H](CCCCNC(=O)c1ccc(C(=O)NCCOCCOB2BBBBBB3BBBB3B2)cc1)NC(=O)CN1CCN(CC(=O)O)CCN(CC(=O)O)CCN(CC(=O)O)CC1)C(=O)O [gallium-67 labelled],,,"ddY male mice, kidney","intravenous, 37 kBq, 3 h",,tissue uptake,3.4 %ID/g
C[C@@H](O)[C@@H](CO)NC(=O)[C@@H](CCCNC(=N)N)NC(=O)[C@@H]1CCCN1C(=O)[C@@H]1CSSC[C@H](NC(=O)[C@H](Cc2ccccc2)NC(=O)CN2CCN(CC(=O)O)CCN(CC(=O)O)CCN(CC(=O)O)CC2)C(=O)N[C@@H](Cc2ccc(O)cc2)C(=O)N[C@@H](Cc2ccccc2)C(=O)N[C@@H](CCC(N)=O)C(=O)N[C@@H](CC(N)=O)C(=O)N1 [gallium-68 labelled],,,"Wistar rat, thyroid","intravenous, 8 MBq, 120 min, group mean",,tissue uptake,0.02 %ID/g
CC(C)C[C@@H]1NC(=O)[C@H](CC(C)C)NC(=O)[C@H](Cc2c[nH]c3ccccc23)NC(=O)[C@H](CO)NC(=O)[C@H](Cc2c[nH]c3ccccc23)NC(=O)[C@@H]2CCCN2C(=O)[C@H](CC(C)C)NC(=O)[C@H](Cc2c[nH]cn2)NC(=O)[C@@H]2CCCN2C(=O)[C@H](CC(N)=O)NC(=O)[C@H](C)NC(=O)[C@H](Cc2ccc(O)cc2)NC(=O)[C@H](CS)NC(=O)[C@H](CCCCNC(=O)CN2CCN(CC(=O)O)CCN(CC(=O)O)CCN(CC(=O)O)CC2)NC1=O [lutetium-177 labelled],,,"Balb/c mouse, female, 4T1 tumour, spleen","intravenous, 3.7 MBq, 4 h",,tissue uptake,0.08 ± 0.04 %ID
CC(C)C[C@H](NC(=O)C[C@H](O)[C@H](CC(C)C)NC(=O)[C@H](Cc1c[nH]cn1)NC(=O)CNC(=O)[C@@H](NC(=O)[C@H](C)NC(=O)[C@H](Cc1c[nH]c2ccccc12)NC(=O)[C@H](CCC(N)=O)NC(=O)[C@@H](Cc1ccccc1)NC(=O)CCNC(=O)CCSc1nnc(NCCC(=O)NCCC(=O)NCCCC[C@H](NC(=O)N[C@@H](CCC(=O)O)C(=O)O)C(=O)O)c2c1CCC1C(CC2)C1COC(=O)NCCNC(=O)CC[C@H](C(=O)O)N1CCN(CC(=O)O)CCN(CC(=O)O)CC1)C(C)C)C(N)=O (some centres unmarked) [gallium-68 labelled],,,"athymic NMRI nude mouse, spleen","intravenous, 533 pmol, 2 h",,tissue uptake,0.3 %ID/g
CCCCCCCCCCCCCCCC(=O)OCC(CSC[C@H](N)C(=O)N[C@@H](CO)C(=O)N[C@@H](CCCCN)C(=O)N[C@@H](CCCCN)C(=O)N[C@@H](CCCCN)C(=O)N[C@@H](CCCCN)C(=O)Nc1ccc(Cn2c(O)nc3c(N)nc(NCCCC)nc32)cc1)OC(=O)CCCCCCCCCCCCCCC (some centres unmarked),HFF-1,,,"0.1 µg/mL, 48 h",,viability,95.4%
Cc1ccccc1NC(=O)Nc1ccc(CC(=O)N[C@@H](CCCCNC(=O)/C=C/c2cccnc2)C(=O)N[C@@H](CCCC(=O)O)C(=O)NC2(C(=O)NCCOCCOCCOCCOCC(=O)N[C@@H](CCCCNC(=S)Nc3ccc(CCCN(CCN4CCN(CP(=O)(O)O)CCN(CP(=O)(O)O)CC4)CC(=O)O)cc3)C(N)=O)CCCCC2)cc1 [gallium-68 labelled],,,"C57BL/6 mice with B16-F10 tumour, tumour, spleen, thymus, bone",added: unlabelled LLP2A-PEG4 100 µg co-injected,,uptake,decreased
CC(C)[C@@H]1NC(=O)[C@H](Cc2ccccc2)NC(=O)[C@@H]2NC(=O)[C@H](Cc3ccccc3)NC(=O)[C@@H]3CCCN3C(=O)CNC(=O)[C@H](Cc3ccccc3)NC(=O)[C@@H]3CNCCCC[C@@H](C(=O)O)NC(=O)[C@@H]4NC(=O)[C@H](CC(N)=O)NC(=O)CNC(=O)[C@H]([C@@H](O)C(=O)O)NC(=O)[C@H](CSC[C@@H](NC(=O)[C@H](CCC(N)=O)NC(=O)[C@H](CCCCNC(=O)c5ccc(NN)nc5)NC(=O)[C@@H](N)CS[C@H]4C)C(=O)N[C@@H](CS[C@H]2C)C(=O)N3)NC1=O [technetium-99m labelled],,,"rat ischemia-reperfusion, heart","saline, 24 h reperfusion",baseline: infarct over normal myocardium,tissue radioactivity ratio,14.1 ± 1.78
CC[C@H](C)[C@H](NC(=O)[C@H](Cc1ccccc1)NC(=O)[C@H](CCC(=O)O)NC(=O)[C@H](CCCNC(=N)N)NC(=O)[C@H](C)NC(=O)[C@H](C)NC(=O)[C@H](CCC(N)=O)NC(=O)[C@H](CCC(=O)O)NC(=O)[C@H](CCC(=O)O)NC(=O)[C@H](CC(C)C)NC(=O)[C@H](Cc1ccc(O)cc1)NC(=O)[C@H](CO)NC(=O)[C@H](CO)NC(=O)[C@@H](NC(=O)[C@H](CC(=O)O)NC(=O)[C@H](CO)NC(=O)[C@@H](NC(=O)[C@H](Cc1ccccc1)NC(=O)[C@@H](NC(=O)CNC(=O)[C@H](CCC(=O)O)NC(=O)[C@H](C)NC(=O)CCc1c[nH]cn1)[C@@H](C)O)[C@@H](C)O)C(C)C)C(=O)N[C@@H](C)C(=O)N[C@@H](Cc1c[nH]c2ccccc12)C(=O)N[C@@H](CC(C)C)C(=O)N[C@H](C(=O)N[C@@H](CCCNC(=N)N)C(=O)NCC(=O)N[C@@H](CCCNC(=N)N)C(=O)N[C@@H](CCCCNC(=O)COCCOCCNC(=O)COCCOCCNC(=O)CC[C@H](NC(=O)CCCCCCCCCCCCCCCCC(=O)O)C(=O)O)C(=O)NCC(=O)NCC(=O)N[C@@H](CO)C(=O)N[C@@H](CCCCNc1c(NCCCCCN(O)C(=O)CCC(=O)NCCCCCN(O)C(=O)CCC(=O)NCCCCCN(O)C(C)=O)c(=O)c1=O)C(=O)O)C(C)C [zirconium-89 labelled],,ex vivo gamma counting,"rat, spleen","subcutaneous, 3 nmol/kg, 72 h, added: [89Zr]-labelled peptide",,tissue uptake,0.27 %ID/g

# Excerpt of the above:
SMILES,tested on,test,system,setting,scale,endpoint,result
Cc1ccccc1NC(=O)Nc1ccc(CC(=O)N[C@@H](CCCCNC(=O)/C=C/c2cccnc2)C(=O)N[C@@H](CCCC(=O)O)C(=O)NC2(C(=O)NCCOCCOCCOCCOCC(=O)N[C@@H](CCCCNC(=S)Nc3ccc(CCCN(CCN4CCN(CP(=O)(O)O)CCN(CP(=O)(O)O)CC4)CC(=O)O)cc3)C(N)=O)CCCCC2)cc1 [gallium-68 labelled],,,"C57BL/6 mice with B16-F10 tumour, tumour, spleen, thymus, bone",added: unlabelled LLP2A-PEG4 100 µg co-injected,,uptake,decreased
